# Experimental data pooled from the literature.
# Parts stem from different laboratories: compare values within a part only.
# Sequence of UniProt P37173 (whole entry, looked up): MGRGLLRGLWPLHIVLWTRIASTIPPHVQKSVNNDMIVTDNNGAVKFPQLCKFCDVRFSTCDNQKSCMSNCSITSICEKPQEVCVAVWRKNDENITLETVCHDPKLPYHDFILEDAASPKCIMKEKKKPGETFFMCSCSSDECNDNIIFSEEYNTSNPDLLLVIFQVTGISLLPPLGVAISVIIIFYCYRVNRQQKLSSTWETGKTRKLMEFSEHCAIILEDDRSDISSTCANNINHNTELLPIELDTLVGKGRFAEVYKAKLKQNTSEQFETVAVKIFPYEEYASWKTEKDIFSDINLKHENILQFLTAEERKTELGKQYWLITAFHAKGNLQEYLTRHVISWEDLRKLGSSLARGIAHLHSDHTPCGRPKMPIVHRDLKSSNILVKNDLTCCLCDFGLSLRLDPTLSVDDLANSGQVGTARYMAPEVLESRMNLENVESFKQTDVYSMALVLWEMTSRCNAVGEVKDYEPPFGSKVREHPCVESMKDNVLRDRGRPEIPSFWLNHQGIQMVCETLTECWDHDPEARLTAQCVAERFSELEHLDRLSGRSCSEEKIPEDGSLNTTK
# Sequence of UniProt P31645 (whole entry, looked up): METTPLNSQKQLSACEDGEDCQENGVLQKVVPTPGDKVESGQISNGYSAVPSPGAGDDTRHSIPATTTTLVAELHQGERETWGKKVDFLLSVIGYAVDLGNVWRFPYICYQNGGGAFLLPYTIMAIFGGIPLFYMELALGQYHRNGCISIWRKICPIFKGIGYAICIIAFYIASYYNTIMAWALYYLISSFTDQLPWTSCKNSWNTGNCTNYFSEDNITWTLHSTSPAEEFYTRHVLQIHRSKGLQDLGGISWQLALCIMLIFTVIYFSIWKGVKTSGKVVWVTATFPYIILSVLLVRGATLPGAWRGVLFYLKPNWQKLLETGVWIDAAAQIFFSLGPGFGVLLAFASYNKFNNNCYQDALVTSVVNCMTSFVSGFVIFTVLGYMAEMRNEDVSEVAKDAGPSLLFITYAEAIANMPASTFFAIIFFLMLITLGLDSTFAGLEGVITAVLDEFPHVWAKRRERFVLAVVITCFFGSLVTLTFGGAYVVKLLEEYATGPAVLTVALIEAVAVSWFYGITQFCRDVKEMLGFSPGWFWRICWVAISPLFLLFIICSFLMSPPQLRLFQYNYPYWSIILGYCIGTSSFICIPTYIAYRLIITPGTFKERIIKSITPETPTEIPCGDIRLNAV
# Sequence of UniProt P51955 (whole entry, looked up): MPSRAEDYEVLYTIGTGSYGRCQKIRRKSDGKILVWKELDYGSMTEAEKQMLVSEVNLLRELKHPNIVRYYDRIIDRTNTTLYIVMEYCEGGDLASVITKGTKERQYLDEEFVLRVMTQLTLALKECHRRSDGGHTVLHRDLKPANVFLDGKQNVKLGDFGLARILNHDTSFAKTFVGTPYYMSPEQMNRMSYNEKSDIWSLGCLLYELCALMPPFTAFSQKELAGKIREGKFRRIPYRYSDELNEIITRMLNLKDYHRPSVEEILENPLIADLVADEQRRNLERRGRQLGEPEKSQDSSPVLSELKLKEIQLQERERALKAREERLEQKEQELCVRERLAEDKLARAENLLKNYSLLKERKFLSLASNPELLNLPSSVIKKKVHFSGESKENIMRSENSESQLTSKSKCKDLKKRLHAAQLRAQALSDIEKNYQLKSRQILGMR
# Sequence of UniProt P08172 (whole entry, looked up): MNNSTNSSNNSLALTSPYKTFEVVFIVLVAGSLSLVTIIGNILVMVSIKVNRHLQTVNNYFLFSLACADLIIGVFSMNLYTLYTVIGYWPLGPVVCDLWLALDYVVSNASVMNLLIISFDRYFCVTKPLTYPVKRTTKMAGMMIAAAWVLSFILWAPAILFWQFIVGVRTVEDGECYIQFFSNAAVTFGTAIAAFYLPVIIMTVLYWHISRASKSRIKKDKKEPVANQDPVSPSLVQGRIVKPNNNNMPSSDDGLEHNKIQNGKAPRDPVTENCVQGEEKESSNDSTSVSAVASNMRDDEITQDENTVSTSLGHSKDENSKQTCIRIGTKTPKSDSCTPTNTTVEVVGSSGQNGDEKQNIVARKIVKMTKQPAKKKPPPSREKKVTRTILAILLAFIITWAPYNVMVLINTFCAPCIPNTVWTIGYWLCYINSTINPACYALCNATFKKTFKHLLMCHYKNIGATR
# Sequence of UniProt P07948 (whole entry, looked up): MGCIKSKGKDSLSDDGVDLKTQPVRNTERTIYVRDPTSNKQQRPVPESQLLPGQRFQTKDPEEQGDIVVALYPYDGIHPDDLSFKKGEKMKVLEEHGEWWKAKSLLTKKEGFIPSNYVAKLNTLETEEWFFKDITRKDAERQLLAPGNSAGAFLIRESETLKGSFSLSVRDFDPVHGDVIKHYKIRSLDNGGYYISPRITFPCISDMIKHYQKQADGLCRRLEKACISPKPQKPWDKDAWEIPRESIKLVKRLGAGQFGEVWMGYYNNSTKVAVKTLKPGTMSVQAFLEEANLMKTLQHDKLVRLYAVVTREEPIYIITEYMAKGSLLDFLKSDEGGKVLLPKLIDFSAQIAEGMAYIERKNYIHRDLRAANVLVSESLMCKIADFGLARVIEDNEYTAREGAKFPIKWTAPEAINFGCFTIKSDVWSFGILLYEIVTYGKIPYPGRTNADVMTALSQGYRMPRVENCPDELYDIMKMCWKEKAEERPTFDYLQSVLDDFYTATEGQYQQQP
# Sequence of UniProt Q99759 (whole entry, looked up): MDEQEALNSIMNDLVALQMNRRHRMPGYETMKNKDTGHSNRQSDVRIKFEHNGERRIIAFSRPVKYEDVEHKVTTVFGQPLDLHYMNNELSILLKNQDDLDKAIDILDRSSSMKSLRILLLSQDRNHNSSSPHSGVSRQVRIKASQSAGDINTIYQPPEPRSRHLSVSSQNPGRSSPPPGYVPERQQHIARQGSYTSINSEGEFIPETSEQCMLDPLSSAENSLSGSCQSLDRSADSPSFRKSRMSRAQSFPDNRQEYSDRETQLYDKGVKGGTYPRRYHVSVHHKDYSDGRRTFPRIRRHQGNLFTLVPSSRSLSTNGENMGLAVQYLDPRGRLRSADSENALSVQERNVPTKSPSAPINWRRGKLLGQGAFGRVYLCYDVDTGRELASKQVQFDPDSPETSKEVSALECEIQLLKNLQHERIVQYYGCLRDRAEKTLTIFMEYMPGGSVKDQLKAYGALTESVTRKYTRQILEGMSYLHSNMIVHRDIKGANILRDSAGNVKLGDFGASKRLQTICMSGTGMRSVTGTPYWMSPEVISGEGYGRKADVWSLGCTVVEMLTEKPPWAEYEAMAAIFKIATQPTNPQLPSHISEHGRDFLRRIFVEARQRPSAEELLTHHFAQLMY
# Sequence of UniProt O96017 (whole entry, looked up): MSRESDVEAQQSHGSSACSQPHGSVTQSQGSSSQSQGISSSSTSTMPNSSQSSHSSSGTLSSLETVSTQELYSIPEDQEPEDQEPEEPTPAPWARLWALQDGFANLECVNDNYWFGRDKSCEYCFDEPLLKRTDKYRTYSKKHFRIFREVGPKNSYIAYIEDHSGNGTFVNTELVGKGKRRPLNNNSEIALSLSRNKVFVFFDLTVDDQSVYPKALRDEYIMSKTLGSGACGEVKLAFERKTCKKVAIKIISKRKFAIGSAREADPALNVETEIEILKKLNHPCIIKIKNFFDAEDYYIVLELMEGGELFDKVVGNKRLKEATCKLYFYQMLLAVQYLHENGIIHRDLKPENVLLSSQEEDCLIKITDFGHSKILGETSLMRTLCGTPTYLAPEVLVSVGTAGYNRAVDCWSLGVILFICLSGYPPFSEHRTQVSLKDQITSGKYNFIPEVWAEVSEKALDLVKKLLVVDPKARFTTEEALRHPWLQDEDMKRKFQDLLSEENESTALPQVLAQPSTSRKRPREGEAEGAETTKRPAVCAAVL

# Sample 1 — cell line: HEK-293T/ACE2; method: Hoechst nuclei count; tested at: concentration not given; time: 16 (unit not given); baseline: vehicle
SMILES,viability [%]
COC(=O)[C@@H]1CC2=CC(=O)CC[C@]2(C)[C@@]23O[C@@H]2C[C@@]2(C)[C@@H](CC[C@@]24CCC(=O)O4)[C@H]13,99.9
CN1CCc2nc(C(=O)N[C@@H]3C[C@@H](C(=O)N(C)C)CC[C@@H]3NC(=O)C(=O)Nc3ccc(Cl)cn3)sc2C1,104
O=C1CC[C@@]2(O)[C@H]3Cc4ccc(O)c5c4[C@@]2(CCN3CC2CC2)[C@H]1O5,97.1
CC(=O)O[C@]1(C(C)=O)CC[C@H]2[C@@H]3C=C(C)C4=CC(=O)CC[C@]4(C)[C@H]3CC[C@@]21C,97
CC[C@@H]1/C=C(\C)C[C@H](C)C[C@H](OC)[C@H]2O[C@@](O)(C(=O)C(=O)N3CCCC[C@H]3C(=O)O[C@H](/C(C)=C/[C@@H]3CC[C@H](Cl)[C@H](OC)C3)[C@H](C)[C@@H](O)CC1=O)[C@H](C)C[C@@H]2OC,102
CO[C@@]1(NC(=O)Cc2cccs2)C(=O)N2C(C(=O)O)=C(COC(N)=O)CS[C@@H]21,96
CCCN(CCC)CCc1cccc2c1CC(=O)N2,99.5
O=C(O[C@H]1CN2CCC1CC2)N1CCc2ccccc2[C@@H]1c1ccccc1,98.3
CCOC(=O)c1ccc(C#Cc2ccc3c(c2)C(C)(C)CCS3)nc1,95.5
C[N+](C)(C)CC(=O)O,102
O=S(=O)(O)Oc1ccc(C(c2ccc(OS(=O)(=O)O)cc2)c2ccccn2)cc1,99.2
CCOC(=O)[C@H](CCc1ccccc1)N[C@@H](C)C(=O)N1[C@H](C(=O)O)C[C@@H]2CCC[C@@H]21,103
CO[C@H]1/C=C/O[C@@]2(C)Oc3c(C)c(O)c4c(c3C2=O)C2=NC3(CCN(CC(C)C)CC3)NC2=C(NC(=O)/C(C)=C\C=C\[C@H](C)[C@H](O)[C@@H](C)[C@@H](O)[C@@H](C)[C@H](OC(C)=O)[C@@H]1C)C4=O,99.7
COc1cccc2c1C(=O)c1c(O)c3c(c(O)c1C2=O)C[C@@](O)(C(C)=O)C[C@@H]3O[C@H]1C[C@H](N)[C@H](O)[C@H](C)O1,75.1
C[C@@H](O[C@H]1OCCN(Cc2n[nH]c(=O)[nH]2)[C@H]1c1ccc(F)cc1)c1cc(C(F)(F)F)cc(C(F)(F)F)c1,96.1
C[C@@](Cc1ccc(O)c(O)c1)(NN)C(=O)O,106
Cc1ccc(Nc2nccc(N(C)c3ccc4c(C)n(C)nc4c3)n2)cc1S(N)(=O)=O,86.3
Cc1[nH]cnc1CN1CCc2c(c3ccccc3n2C)C1=O,105
C[C@]12C=CC(=O)N[C@@H]1CC[C@@H]1[C@@H]2CC[C@]2(C)[C@@H](C(=O)Nc3cc(C(F)(F)F)ccc3C(F)(F)F)CC[C@@H]12,106
CCc1c2c(nc3ccc(OC(=O)N4CCC(N5CCCCC5)CC4)cc13)-c1cc3c(c(=O)n1C2)COC(=O)[C@]3(O)CC,83.1
NC(=O)Cc1cccc(C(=O)c2ccccc2)c1N,97

# Sample 2 — cell line: HEK-293T-ACE2-TMPRSS2; method: cell count; tested at: concentration not given
Structure (SMILES),viability
COc1ccc(-c2noc(CC3CCN(C(=O)c4cncc(Br)c4)CC3)n2)cc1,78%
CCOCC(=O)N1CC(F)(F)C[C@H]1c1nc(C2CC2)no1,112%
NC(=O)OC(c1ccccc1)C(Cl)(Cl)Cl (stereo not shown),108%
CCS(=O)(=O)c1ncc(Cl)c(C(=O)Nc2ccc(S(=O)(=O)N3CCCCC3)cc2)n1,77%
COc1ccc(CNCCC(Cc2ccccc2)c2ccco2)cc1 (stereo not shown),241%
CCC(CC)n1nc(C)cc1NC(=O)C(=O)Nc1ccc(C)cc1C,81%
COc1nccnc1-c1ccnc2[nH]ccc12,120%
Clc1ccc2c(Sc3nnnn3C3CCCC3)ccnc2c1,81%
Cc1ccc(/C(C#N)=C2\C=C(Br)C(=NO)C=C2Cl)cc1,99%
Cc1ccc2c(=O)c(C(=O)Nc3ccccc3)cn(CC(=O)NC3CCCC3)c2n1,78%
CC(C)CN1CC(C(=O)NCc2nncn2C2CCCCC2)CC1=O (stereo not shown),100%
Cc1ccc(S(=O)(=O)N2CCC(C(=O)Nc3nc4ccccc4s3)CC2)cc1,73%
COc1ccc(C2(C(=O)N3CCC(Cc4nc(-c5ccc(F)cc5)no4)CC3)CC2)cc1,65%
O=C(c1cc(COc2cccc3cccnc23)on1)N1CCN(C2CCCC2)CC1,104%
Cc1ccc(-c2nccn2-c2cccc(-c3nnc(C)s3)c2)o1,77%
Cc1ccc(CS(=O)(=O)c2ncc(Cl)c(C(=O)N3CCN(C)CC3)n2)cc1,77%
CC(Cc1ccsc1)Nc1ncnc2sccc12 (stereo not shown),84%
CCn1nc(C)c([N+](=O)[O-])c1C(=O)NCC(=O)c1ccc(Cl)cc1,71%
Cc1cccc(N2CCN(C(=O)c3cc4occc4c(Nc4ccc(F)cc4)n3)CC2)c1C,66%
COC[C@@H]1CN(C(=O)c2cc(C3CC3)[nH]n2)C[C@H]1c1nc(C2CC2)no1,104%
CCCc1nc(-c2cc3cccc(C)c3nc2NCCN2CCc3ccccc3C2)no1,68%
c1cnc2c(-n3nc(C4CC4)nc3-c3csnn3)cccc2c1,73%
O=C(OCCc1ccccc1/C=C\[N+](=O)[O-])c1ccc(C(F)(F)F)cc1,75%
Cc1oc2ncnc(N3CCC(C(=O)NCCc4cccs4)CC3)c2c1C,67%
COc1ccc2c(c1)CC(C(=O)N1CCC(CCC(=O)Nc3ccccc3)CC1)CO2 (stereo not shown),111%

# Sample 3 — effect on: enzyme activity; mode: inhibitor; tested at: 0.5 µM; baseline: control
# SMILES: CCn1cnc2c(Nc3cccc(Cl)c3)nc(N[C@H]3CCCC[C@H]3N)nc21
target,remaining activity [%]
"Serine/threonine-protein kinase Nek2 (NEK2, Homo sapiens, UniProt P51955)",100
"Tyrosine-protein kinase Lyn, isoform B (LYN, Homo sapiens, UniProt P07948)",92.9
"Cyclin-dependent kinase 5, with p25 (CDK5, Homo sapiens, UniProt Q00535)",5.16
"TGF-beta receptor type-2 (TGFBR2, Homo sapiens, UniProt P37173)",91.2
"Inhibitor of nuclear factor kappa-B kinase subunit epsilon (IKBKE, Homo sapiens, UniProt Q14164)",99.5
"Serine/threonine-protein kinase 10 (STK10, Homo sapiens, UniProt O94804)",75.1
"Protein kinase C alpha type (PRKCA, Homo sapiens, UniProt P17252)",68.2
"Serine/threonine-protein kinase STK11 (STK11, Homo sapiens, UniProt Q15831)",78
"Serine/threonine-protein kinase Chk2 (CHEK2, Homo sapiens, UniProt O96017)",79.9
"Mitogen-activated protein kinase kinase kinase 3 (MAP3K3, Homo sapiens, UniProt Q99759)",103
"TGF-beta receptor type-1 (TGFBR1, Homo sapiens, UniProt P36897)",95.6

# Further values, each from its own experiment
# CDPK1: Calcium-dependent protein kinase 1 (CDPK1, Plasmodium falciparum, UniProt P62344)
# Sequence of UniProt P62344 (whole entry, looked up): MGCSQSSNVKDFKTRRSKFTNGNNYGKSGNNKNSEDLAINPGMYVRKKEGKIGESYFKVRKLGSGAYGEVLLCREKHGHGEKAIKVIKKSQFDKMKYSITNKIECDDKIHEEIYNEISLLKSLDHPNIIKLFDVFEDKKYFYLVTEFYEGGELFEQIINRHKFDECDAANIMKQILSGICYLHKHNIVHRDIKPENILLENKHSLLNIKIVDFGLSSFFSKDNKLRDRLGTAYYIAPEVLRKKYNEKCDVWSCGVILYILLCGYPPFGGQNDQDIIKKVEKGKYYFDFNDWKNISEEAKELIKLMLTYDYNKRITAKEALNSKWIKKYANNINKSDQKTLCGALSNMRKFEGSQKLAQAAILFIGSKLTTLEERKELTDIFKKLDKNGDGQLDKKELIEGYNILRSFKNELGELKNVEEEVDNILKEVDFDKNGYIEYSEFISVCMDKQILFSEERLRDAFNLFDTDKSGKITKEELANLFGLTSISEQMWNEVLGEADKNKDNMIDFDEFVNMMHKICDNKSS
SMILES,target,test,conditions,measurement,value
Cc1c(NC(=O)c2cc(C(N)=O)nc3cc(F)ccc23)c(C(F)(F)F)nn1Cc1ccc(C#N)cc1,CDPK1,"cell-free assay, competition with immobilised ligand",1 µM,remaining binding,92%
CC(=O)N1CCC(c2ccc(C(=O)NC3=NCCN3)cc2C(F)(F)F)CC1,"Sodium-dependent serotonin transporter (SLC6A4, Homo sapiens, UniProt P31645)",ligand displacement,10 µM,inhibition,11.8%
CNC(=O)c1cc(C(=O)NC2CC2)cn(Cc2ccccc2)c1=O,"Muscarinic acetylcholine receptor M2 (CHRM2, Homo sapiens, UniProt P08172)","binding, radioligand binding",10 µM,inhibition,13.2%
C[C@H](NC(=O)c1cnc2n1[C@](C)(Cc1ccc(C#N)cc1)C(=O)N2c1cc(Cl)c(F)c(Cl)c1)C(=O)NC1(c2ccccn2)CC1,CDPK1,"cell-free assay, competition with immobilised ligand",1 µM,remaining binding,100%

# A few entries again (sample 1):
SMILES,viability [%]
C[C@@H](O[C@H]1OCCN(Cc2n[nH]c(=O)[nH]2)[C@H]1c1ccc(F)cc1)c1cc(C(F)(F)F)cc(C(F)(F)F)c1,96.1
C[C@@](Cc1ccc(O)c(O)c1)(NN)C(=O)O,106
Cc1ccc(Nc2nccc(N(C)c3ccc4c(C)n(C)nc4c3)n2)cc1S(N)(=O)=O,86.3
Cc1[nH]cnc1CN1CCc2c(c3ccccc3n2C)C1=O,105
C[C@]12C=CC(=O)N[C@@H]1CC[C@@H]1[C@@H]2CC[C@]2(C)[C@@H](C(=O)Nc3cc(C(F)(F)F)ccc3C(F)(F)F)CC[C@@H]12,106
CCc1c2c(nc3ccc(OC(=O)N4CCC(N5CCCCC5)CC4)cc13)-c1cc3c(c(=O)n1C2)COC(=O)[C@]3(O)CC,83.1
